Experimental data of several laboratories.
Each line is one published result; not all experiments were run side by side. ± marks the error that the study gave. Values after ≈ are worked out from the molar mass of the structure shown.

`CCN(CC)CCNC(=O)c1cc(-c2ccc(Br)s2)nc2ccccc12` gave an efficacy of 84.5% (SARS-CoV-2; cytopathic effect; USA_WA1/2020; round 1, 5-point).
With `CC(C)=CCc1c(O)ccc(C(=O)/C=C/c2ccc(O)cc2)c1O` the inhibition was 0% (Severe acute respiratory syndrome coronavirus 2; cytopathic effect; Vero C1008; 0.7812 µM).
`CCCCCCCCCCCCN(C)C(=O)CP(=O)(O)O` gave an MIC90 of 0.097 µg/mL (≈ 0.302 µM) (Bacillus anthracis; 2 strains).
Under viral replication, `O=c1ccn([C@@H]2O[C@](F)(CO)[C@@H](O)[C@H]2O)c(=O)[nH]1` is recorded as “inhibited” (Crimean-Congo hemorrhagic fever virus; recombinant reporter; concentration not given).
For `COc1ccc(S(=O)(=O)NCCNc2nc(C)nc3sccc23)cc1`, the remaining activity was 39% (Lassa mammarenavirus; viral replication; Huh-7; 10 µM, 72 h).
For `c1ccc2c(c1)Sc1ccccc1N2CC1CN2CCC1CC2` (centres unmarked), the EC50 was 7.76 µM (SARS-CoV-2; viral replication, GFP plate reader screen; cell-based).
The selectivity index of `CCN(CC)CCCC(C)Nc1c2ccc(Cl)cc2nc2ccc(OC)cc12` (centres unmarked) is reported as 1.64 (Chikungunya virus; BHK-21 CHIKV replicon Gluc reporter; reference: CC50 over EC50).
For `N=C(N)c1ccc2cc(OC(=O)c3ccc(N=C(N)N)cc3)ccc2c1`, the survival was 0% (Daboia russelii; mouse; intravenous, 120 µg/mouse, 24 h, drug mixture, added: RJ venom 2.5 x LD50 preincubated).
For `O=C(Nc1ccc(N2CCN(C(=O)c3cnccn3)CC2)nc1)c1ccc(Br)cc1`, the IC90 was 40.3 µM (Mycobacterium tuberculosis; bacterial growth; H37Ra-lux; 168 h).
`O=C(Nc1ncc(CCc2ccccc2)s1)C1CCCC1` has an MIC of 2.5 µM (≈ 0.751 µg/mL) (Histoplasma capsulatum; microbial growth).
`O=C(Nc1ccc(N2CCN(C(=O)c3cnccn3)CC2)nc1)c1ccccc1` gave an IC90 of 3.73 µM (Mycobacterium tuberculosis; bacterial growth; H37Ra-lux; 168 h).
`O=C(NCCCN1CCCCC1)c1cc(Sc2ccc(Cl)cc2)nc2ccccc12` gave an efficacy of 108% (SARS-CoV-2; cytopathic effect, cell-based CPE; USA_WA1/2020; round 2, 5-point dilution).
The EC50 of `CC[C@@H]([C@H](C)O)n1ncn(-c2ccc(N3CCN(c4ccc(OC[C@@H]5CO[C@@](Cn6cncn6)(c6ccc(F)cc6F)C5)cc4)CC3)cc2)c1=O` is reported as over 100 µM (SARS-CoV-2; viral replication, high-content imaging screen; cell-based).
For `O=C(CCc1ccncc1)N1CCCC(CCc2ccc(F)c(F)c2)C1` (centres unmarked), the remaining activity was 49% (Lassa mammarenavirus; viral replication; Huh-7; 10 µM, 72 h).
`CCN(CCO)CCCC(C)Nc1ccnc2cc(Cl)ccc12` (centres unmarked) has an EC50 of 11.6 µM (SARS-CoV-2; viral replication, GFP plate reader screen; cell-based).
`CNC(=O)[C@@H](NC(=O)[C@H](CC(C)C)[C@H](O)C(=O)NO)C(C)(C)C` has a viability difference of -17.8% (Daboia russelii; C2C12; 100 µM, added: Daboia russelii venom RJ; reference: venom alone).
`COc1cccc(-c2ccc(CN3CCCC(c4nc5ccc(C)cc5c(=O)[nH]4)C3)cc2)c1` (centres unmarked) has an AC50 of 12.6 µM (SARS-CoV-2; cytopathic effect, cell-based CPE; USA_WA1/2020).
`O=C1c2c(O)c(=O)ccn2N([C@@H]2c3ccccc3SCc3c2ccc(F)c3F)[C@@H]2COCCN12` gave an EC50 of 0.0004 ± 5e-05 µM (Influenza A virus; viral replication; A(H5N8) A/gull/Delaware/486/2018; mean).
The EC50 of `CN1CCN(CCCN2c3ccccc3Sc3ccc(C(F)(F)F)cc32)CC1` is reported as over 100 µM (SARS-CoV-2; viral replication, high-content imaging screen; cell-based).
`CN(C)CCOC(c1ccc(Cl)cc1)c1ccccn1` (centres unmarked) has an IC50 of 29.5 ± 8.1 µM (Ebola virus Zaire; HIV/EBOV pseudovirion entry; A549; 48 h).
`CN1[C@@H]2CC[C@H]1C[C@@H](OC(c1ccccc1)c1ccc(Cl)cc1)C2` (some centres unmarked) gave an EC50 of 9.77 µM (SARS-CoV-2; viral replication, GFP plate reader screen; cell-based).
`CCc1csc(CNC(=O)c2sc(OC)nc2C)n1` gave a remaining activity of 53% (Lassa mammarenavirus; viral replication; Huh-7; 10 µM, 72 h).
`CCc1c(C(=O)C(N)=O)c2c(OCC(=O)O)cccc2n1Cc1ccccc1` — result for “time of death”: over 24 h (Daboia russelii; mouse; intravenous, 120 µg, up to 24 h, given 30 min after venom, added: northern venom intraperitoneal).
For `Cc1ccc(-c2nc(C[S+]([O-])CC(=O)N3CCN(c4ccc(Cl)cc4)CC3)c(C)o2)cc1` (centres unmarked), the AC50 was 3.55 µM (SARS-CoV-2; cytopathic effect, cell-based CPE; USA_WA1/2020; round 1, 5-point dilution).
For `NC(=O)c1ncn([C@@H]2O[C@H](CO)[C@@H](O)[C@H]2O)n1`, the EC90 was 454 ± 236 µM (SARS-CoV; virus yield; Urbani; 48 h).
The selectivity index of `NCCCCCc1cnc[nH]1` is reported as 1 (Marburg virus; pseudovirus entry; A549; reference: CC50 over IC50).
The EC50 of `Cc1cc2nc3c(=O)[nH]c(=O)nc-3n(C[C@H](O)[C@H](O)[C@H](O)CO)c2cc1C` is reported as over 50.1 µM (SARS-CoV-2; viral replication, high-content imaging screen; cell-based).
With `O=C(NCC1CCOC2(CCN(C(=O)C3(c4ccccc4)CCCC3)CC2)C1)c1ccncc1` (centres unmarked) the inhibition was 40% (Venezuelan equine encephalitis virus; viral replication; 40 µM).
With `O=C(c1cnn[nH]1)N1CCc2[nH]nc(C3CCC3)c2C1` the remaining activity was 43% (Lassa mammarenavirus; viral replication; Huh-7; 10 µM, 72 h).
`C=C[C@@](C)(/C=C/c1ccc(O)cc1)CCC=C(C)C` has an inhibition of 0% (Severe acute respiratory syndrome coronavirus 2; cytopathic effect; Vero C1008; 1.562 µM).
Under antiviral activity, `CNc1nc(N)ncc1-c1cn([C@@H]2O[C@H](CO[P@@](=O)(N[C@@H](C)C(=O)OC(C)C)Oc3ccccc3)[C@@H](O)[C@@]2(C)F)cn1` is recorded as “inactive” (MERS coronavirus; concentration not given).
`OCCOCCN1CCN(C(c2ccccc2)c2ccc(Cl)cc2)CC1` (centres unmarked) gave a selectivity index of 12 (Marburg virus; pseudovirus entry; A549; reference: CC50 over IC50).
`Cc1ccccc1CN1C(=O)c2ccccc2Sc2ccc(C(=O)NCCCN3CCOCC3)cc21` has a maximum response of 40.8% (SARS-CoV-2; cytopathic effect; USA_WA1/2020; retest, 8-point, duplicates).
`Cn1c(=O)ccc2ccc(F)c(CCNC[C@H]3CN(c4cnc5c(n4)NC(=O)CO5)C(=O)O3)c21` gave an MIC50 of 0.25 µg/mL (≈ 0.534 µM) (Burkholderia mallei; microbial growth).
For `O=C(NCc1ccccc1Cl)C1CCCN(Cc2cccc(-c3ccc(F)cc3F)c2)C1` (centres unmarked), the maximum response was 44.2% (SARS-CoV-2; cytopathic effect; USA_WA1/2020; retest, 8-point, duplicates).
`CCn1c(CC2CCN(C(=O)c3ccc(CN(C)C)o3)CC2)nn(C)c1=O` gave a remaining activity of 55% (Lassa mammarenavirus; viral replication; Huh-7; 10 µM, 72 h).
For `Clc1ccc(C(c2ccccc2)N2CCN(C/C=C/c3ccccc3)CC2)cc1` (centres unmarked), the EC50 was over 100 µM (SARS-CoV-2; viral replication, GFP plate reader screen; cell-based).
`O=C(Nc1ncc(Cc2ccccc2)s1)C1CCOCC1` gave an MIC of over 20 µM (Histoplasma capsulatum; microbial growth).
`Cc1nc2n(n1)CC(=O)N[C@@H](C(C)C)CN(C(=O)c1cc[nH]c1)CC(=O)N[C@@H](CC(C)C)c1nc(cs1)C(=O)N[C@H]2Cc1ccccc1` has a remaining activity of 87% (Lassa mammarenavirus; viral replication; Huh-7; 10 µM, 72 h).
With `COc1cc2c3cc1Oc1c(OC)c(OC)cc4c1[C@@H](Cc1ccc(O)c(c1)Oc1ccc(cc1)C[C@@H]3N(C)CC2)N(C)CC4` the EC50 was over 6.31 µM (SARS-CoV-2; viral replication, high-content imaging screen; cell-based).
With `Nc1ncnc2c1ncn2[C@@H]1O[C@@H]2COP(=O)(O)O[C@H]3[C@@H](O)[C@H](n4cnc5c(=O)[nH]cnc54)O[C@@H]3COP(=O)(O)O[C@H]2[C@H]1O` the fold enrichment was 1.84 (Chikungunya virus; upregulated Reactome pathway, RNA sequencing, measured: Gene expression (Transcription) (R-HSA-74160); HFF-1; reference: CHIKV-infected untreated).
With `O=C(Nc1ccc(N2CCCN(C(=O)c3cnccn3)CC2)nc1)c1ccncc1` the IC90 was over 64 µM (Mycobacterium tuberculosis; bacterial growth; H37Ra-lux; 168 h).
`CNc1cc(C)nc(N2C[C@@H]3NC(=O)CCCNC(=O)c4cccc(c4)-c4cccc(c4)CO[C@H]3C2)n1` has an Emax of 98.3% (Lassa mammarenavirus; viral replication; Huh-7; concentration not given).
The efficacy of `CCCCN(CCCC)CCCNC(=O)c1cc(-c2ccc(Cl)s2)nc2ccccc12` is reported as 63.8% (SARS-CoV-2; cytopathic effect; USA_WA1/2020; retest, 8-point, duplicates).
With `CN1CCN2CCN(c3nc(N)nc4[nH]cnc34)CC2C1` (centres unmarked) the remaining activity was 54% (Lassa mammarenavirus; viral replication; Huh-7; 10 µM, 72 h).
For `COc1ccc(Nc2cc(C(=O)NCCCN3CCN(c4ccc(OC)cc4)CC3)c3ccccc3n2)cc1`, the maximum response was 46.5% (SARS-CoV-2; cytopathic effect; USA_WA1/2020; round 2, 5-point).
The inhibition of `Nc1ncnc2c([C@@H]3N[C@H](CO)[C@@H](O)[C@H]3O)c[nH]c12` is reported as 99% (Marburg virus; viral replication; HeLa, Angola; 200 µM).

For quick reference, copied from above:
For `Clc1ccc(C(c2ccccc2)N2CCN(C/C=C/c3ccccc3)CC2)cc1` (centres unmarked), the EC50 was over 100 µM (SARS-CoV-2; viral replication, GFP plate reader screen; cell-based).
`O=C(Nc1ncc(Cc2ccccc2)s1)C1CCOCC1` gave an MIC of over 20 µM (Histoplasma capsulatum; microbial growth).
`Cc1nc2n(n1)CC(=O)N[C@@H](C(C)C)CN(C(=O)c1cc[nH]c1)CC(=O)N[C@@H](CC(C)C)c1nc(cs1)C(=O)N[C@H]2Cc1ccccc1` has a remaining activity of 87% (Lassa mammarenavirus; viral replication; Huh-7; 10 µM, 72 h).
With `COc1cc2c3cc1Oc1c(OC)c(OC)cc4c1[C@@H](Cc1ccc(O)c(c1)Oc1ccc(cc1)C[C@@H]3N(C)CC2)N(C)CC4` the EC50 was over 6.31 µM (SARS-CoV-2; viral replication, high-content imaging screen; cell-based).
With `Nc1ncnc2c1ncn2[C@@H]1O[C@@H]2COP(=O)(O)O[C@H]3[C@@H](O)[C@H](n4cnc5c(=O)[nH]cnc54)O[C@@H]3COP(=O)(O)O[C@H]2[C@H]1O` the fold enrichment was 1.84 (Chikungunya virus; upregulated Reactome pathway, RNA sequencing, measured: Gene expression (Transcription) (R-HSA-74160); HFF-1; reference: CHIKV-infected untreated).
